Experimental data gathered from unrelated publications.
Every numbered part comes from another study and shows a few of its results, in no order. Changes are numbered by the printed parent chain.

Series 1 — target: CCND3, cyclin fold, Cln2 fusion (human); technique: yeast growth competition, sequencing; medium: yeast; notes: weak parent motif; baseline: not given; direction: higher = stronger binding; measurement: normalised enrichment score
Starting sequence: ORC1 docking peptide (human); PRARKRLELGNLG
PRCRKRLELGNLG [A3C]: 0.167
PRARFRLELGNLG [K5F]: 0.149
PRARKRLELGNSG [L12S]: 0.145
PRARKRLELGNLE [G13E]: 0.131
PRARSRLELGNLG [K5S]: 0.11
NRARKRLELGNLG [P1N]: 0.178
PRARKWLELGNLG [R6W]: 0.105
MRARKRLELGNLG [P1M]: 0.0358
PRARKRLCLGNLG [E8C]: 0.087
PRARKRLELTNLG [G10T]: 0.0773
PRARKRLELGNPG [L12P]: 0.14
PRFRKRLELGNLG [A3F]: 0.153
PRARKRLELGFLG [N11F]: 0.168
PRARKRLELGNIG [L12I]: 0.0164
PRAKKRLELGNLG [R4K]: 0.0711
TRARKRLELGNLG [P1T]: 0.109

Series 2 — target: Sox, HMG box (Pigoraptor chileana); technique: Spec-seq; molecule type: double-stranded DNA, one strand shown; medium: in vitro; tested at: not given; notes: whole probe, mean of replicates; baseline: not given; direction: lower = stronger binding; measurement: relative binding energy; all sequences stand within: GAGTCGTCTCGTCAGCAC … CCGTAGAGCACTCAGGTC
Target sequence (chain): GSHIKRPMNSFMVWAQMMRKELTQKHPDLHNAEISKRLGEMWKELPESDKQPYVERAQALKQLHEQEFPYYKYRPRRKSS
GGTGGTT: 1.12 ln ratio
GTCCGTT: 1.27 ln ratio
CATTTCT: 0.513 ln ratio
CATAAGT: -0.291 ln ratio
GAGAGTT: 1.44 ln ratio
CTGGGTT: 1.3 ln ratio
CATCAGT: 0.105 ln ratio
CATCTGA: 0.763 ln ratio
CTGCGTT: 1.07 ln ratio
GAAAGTT: 1.15 ln ratio
CATTGTA: -2.54 ln ratio
CATTGCC: 0.257 ln ratio
ATGCGTT: 0.397 ln ratio
CTAGGTT: 0.926 ln ratio
CATCTAA: 0.559 ln ratio
TTAGGTT: 0.573 ln ratio

Series 3 — technique: protein binding microarray; molecule type: double-stranded DNA, one strand shown; medium: in vitro; tested at: not given; baseline: not given; direction: higher = stronger binding; measurement: E-score
Target: Histone acetyltransferase KAT6A, winged helix 2, GST fusion (KAT6A, Homo sapiens, UniProt Q92794, residues 85-181)
Notes: 8-mer, flanks averaged, mean of 2 arrays, mostly near background
Target sequence (chain): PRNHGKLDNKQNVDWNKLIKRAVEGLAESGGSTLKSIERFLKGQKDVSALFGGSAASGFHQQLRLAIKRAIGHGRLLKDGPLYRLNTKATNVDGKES
ATGTCGAG: -0.1
CCACTGCG: 0.168
AAAATACT: 0.023
CTGTCGAC: -0.0715
ATCCAAAC: 0.052
ACCTGAAC: -0.16
TGATATAA: -0.0633
CCTGAGCC: 0.0403
CGACACCA: -0.135
CTTATGCC: 0.0178
AGTCTTCG: -0.0394
ATACAACC: -0.132
AATTGCGA: -0.126
AATAGAAG: -0.189

Further values, each from its own experiment
PhoQ, residues 284 288 289 292 302 303 NSMLDC
fold induction (PhoP, residues 12 14 15 18 19 AQCLL (Escherichia coli, UniProt P23836); Sort-seq, item: YFP reporter; E. coli; PhoQ-PhoP variant library, together with: 10 µM Mg2+; baseline: high Mg2+ state, higher = stronger signaling): 2.4

Repeated from above (series 3):
CCTGAGCC: 0.0403
CGACACCA: -0.135
CTTATGCC: 0.0178
AGTCTTCG: -0.0394
